Assay results pooled from the literature.
Parts stem from different laboratories: compare values within a part only. Changes are numbered by the printed parent chain.

Sample 1
Target: Ras GTPase-activating protein-binding protein 1, full length (G3BP1, Homo sapiens, UniProt Q13283)
UniProt Q13283, sequence (whole entry, looked up): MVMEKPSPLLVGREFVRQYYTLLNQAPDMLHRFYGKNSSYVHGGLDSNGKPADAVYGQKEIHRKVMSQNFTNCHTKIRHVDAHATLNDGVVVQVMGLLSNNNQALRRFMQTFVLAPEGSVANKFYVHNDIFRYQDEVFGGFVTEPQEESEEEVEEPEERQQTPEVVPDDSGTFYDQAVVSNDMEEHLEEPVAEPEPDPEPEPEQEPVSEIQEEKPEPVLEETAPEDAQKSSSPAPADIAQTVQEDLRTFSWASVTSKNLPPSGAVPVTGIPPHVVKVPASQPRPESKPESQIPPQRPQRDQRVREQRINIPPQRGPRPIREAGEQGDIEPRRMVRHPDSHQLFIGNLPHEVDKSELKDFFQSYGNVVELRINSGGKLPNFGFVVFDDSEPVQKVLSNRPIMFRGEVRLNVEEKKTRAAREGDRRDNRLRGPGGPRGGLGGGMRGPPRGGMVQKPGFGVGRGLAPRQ
Technique: RNA Bind-n-Seq
Form: RNA
Matrix: in vitro
Concentration: 200 nM
Notes: whole 134-nt RNA, ends assumed
With: 150 mM KCl
Relative to: input library
Direction: higher = stronger binding
Quantity: log2 enrichment
All sequences stand within: GGGAGUUCUACAGUCCGACGAUC … UGGAAUUCUCGGGUGUCAAGG
UGGGAGGUGGAUUUUGUUUAUUUUUUUAGCUCAUUUCCAGGGGUGGGAAUUUUUUUUUAAUAUGUGUCAGGAAUAAAGUUGUUUUUGAAA: 0.365
UCCUGUGCUACACAUCGUAUGUACCGAAUCAAAUUUUUUUAAAUUUUUUUAAACCCAAAAAAGUAUUAUGUUACGCCGUUCGGAUCUGCA: -0.0202
CCUGUGCUACACAUCGUAUGUACCGAAUCGGGGAAAAAAAGGGGAGGGGAAAAAAAGGGGAAAGUAUUAUGUUACGCCGUUCGGAUCUGC: 0.0329
CCUGUGCUACACAUCGUAUGUACCGAAUCGGAAAAAAAGGGAAAAAAAGGAAAAAAAGGGGAAAGUAUUAUGUUACGCCGUUCGGAUCUG: -1.02
CCUCAAGUCCUGUGCUACACAUCGUAUGUACCGAAUCGGGAAGGGAAGGAAGGAAAGUAUUAUGUUACGCCGUUCGGAUCUGCACUUCCA: -0.466
GUCCUGUGCUACACAUCGUAUGUACCGAAUCGGGUUUGGGAAAAAGGGAAAAAAAGGGAAAGUAUUAUGUUACGCCGUUCGGAUCUGCAC: -0.331
CACAGACAACACGCUCCCACACAGACACAGAGGGAAGGGGUUGGGAUGGGGACAGGGUGCACAGCAGGGCGGGGUAGGACCCCAGCCCCU: 2.43
CCUCAAGUCCUGUGCUACACAUCGUAUGUACCGAAUCGGGUGGGGUGGUGGGGAAAGUAUUAUGUUACGCCGUUCGGAUCUGCACUUCCA: 1.11
AGUCCUGUGCUACACAUCGUAUGUACCGAAUCGGGGUGGGGUUUGGGGUUUUUGGGGAAAGUAUUAUGUUACGCCGUUCGGAUCUGCACU: 0.785
AGUCCUGUGCUACACAUCGUAUGUACCGAAUCGGAAAAAAAGGUUUGGAAAAAAAGGAAAGUAUUAUGUUACGCCGUUCGGAUCUGCACU: -1.77
UAACUUUAGAGGAGGAUCUGAUGGAUAUGGCAGUGGACGUGGAUUUGGGGAUGGCUAUACUGGGUAUGGAGGAGGACCUGGAGGUGGCAA: 0.363
AGUCCUGUGCUACACAUCGUAUGUACCGAAUCAAACCCCCCCAAAUUUAAAUUUAAAAAAGUAUUAUGUUACGCCGUUCGGAUCUGCACU: -0.008
UUGCAGAUGAGCUUAUGGGGGGCAAUCUUAAAAAGUCCACAGCAGAUGCAUCCGGCUCGAGGGGCCAUCAGCUUUGAAUAAAUGCUUGUU: -0.0543
AAGUCCUGUGCUACACAUCGUAUGUACCGAAUCGGCCCCCGGGCCCCCGGCCCCCGGAAAGUAUUAUGUUACGCCGUUCGGAUCUGCACU: -0.741

Sample 2
Target: ABI1, truncated, D143A, DHFR fusion (Arabidopsis thaliana)
Technique: DHFR PCA, deep sequencing
Matrix: yeast
Notes: methotrexate growth selection, single substitutions
With: (+)-ABA 710 µM
Relative to: wild-type fitted maximum
Direction: higher = stronger binding
Quantity: relative binding score
Parent: PYL1, truncated, DHFR fusion (Arabidopsis thaliana); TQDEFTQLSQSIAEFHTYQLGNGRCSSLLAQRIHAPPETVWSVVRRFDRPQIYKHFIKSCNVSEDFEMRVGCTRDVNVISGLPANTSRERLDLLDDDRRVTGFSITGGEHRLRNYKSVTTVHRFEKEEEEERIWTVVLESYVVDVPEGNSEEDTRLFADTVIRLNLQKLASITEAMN
Q31I: 74.7%
H55M: 105%
E109W: 81%
F15I: 88.7%
A35Y: 31.6%
S117C: 78.8%
Q19W: 92.2%
S11H: 94%
F103R: -9.38%
E14A: 89%
S87I: 48.2%
T120Q: 74.6%
T135L: 3.6%
G21E: 101%
D65E: 104%
S171L: 95.6%

Sample 3
Target: Sal-like protein 4, full length isoform A (SALL4, Homo sapiens, UniProt Q9UJQ4, residues 1-1053)
UniProt Q9UJQ4, sequence (whole entry, looked up): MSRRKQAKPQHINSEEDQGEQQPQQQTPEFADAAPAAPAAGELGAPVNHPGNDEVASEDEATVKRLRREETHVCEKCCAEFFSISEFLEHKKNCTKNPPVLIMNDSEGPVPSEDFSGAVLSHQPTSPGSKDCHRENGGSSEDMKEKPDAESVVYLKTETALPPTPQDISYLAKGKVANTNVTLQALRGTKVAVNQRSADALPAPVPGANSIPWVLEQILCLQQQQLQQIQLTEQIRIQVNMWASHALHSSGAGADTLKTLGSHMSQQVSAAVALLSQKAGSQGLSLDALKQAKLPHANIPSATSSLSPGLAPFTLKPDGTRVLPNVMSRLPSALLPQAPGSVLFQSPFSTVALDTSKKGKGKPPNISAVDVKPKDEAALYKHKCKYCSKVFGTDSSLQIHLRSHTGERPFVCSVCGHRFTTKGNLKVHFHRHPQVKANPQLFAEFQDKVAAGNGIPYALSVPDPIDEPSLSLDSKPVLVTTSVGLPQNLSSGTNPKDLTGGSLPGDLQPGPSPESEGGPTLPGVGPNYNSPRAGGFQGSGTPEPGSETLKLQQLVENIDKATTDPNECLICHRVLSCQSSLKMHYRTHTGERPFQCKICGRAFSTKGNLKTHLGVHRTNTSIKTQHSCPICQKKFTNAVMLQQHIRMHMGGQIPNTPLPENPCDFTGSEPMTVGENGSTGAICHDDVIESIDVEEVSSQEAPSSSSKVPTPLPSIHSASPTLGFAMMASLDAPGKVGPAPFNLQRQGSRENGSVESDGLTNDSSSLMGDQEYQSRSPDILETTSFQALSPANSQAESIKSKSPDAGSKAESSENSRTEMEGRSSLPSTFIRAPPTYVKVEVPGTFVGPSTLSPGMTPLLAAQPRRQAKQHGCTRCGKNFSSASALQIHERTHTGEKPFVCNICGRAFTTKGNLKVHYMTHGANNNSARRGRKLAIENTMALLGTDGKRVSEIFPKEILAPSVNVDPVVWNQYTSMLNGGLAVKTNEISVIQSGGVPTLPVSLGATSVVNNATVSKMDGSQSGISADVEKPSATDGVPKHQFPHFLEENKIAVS
Technique: universal PBM
Form: double-stranded DNA, one strand shown
Matrix: in vitro
Concentration: 600 nM
Notes: 8-mer, flanks averaged, mean of replicates
Direction: higher = stronger binding
Quantity: E-score
AGGTCTAT: 0.0881
AACATTGG: 0.00306
AATCTGCC: -0.0878
CGCTCTAA: -0.0535
ATTACTAA: 0.334
AATCTGGT: 0.0179
ATGTTCCC: -0.0188
CTATCGAA: 0.257
GAAAAAAC: 0.22
AGAACCTG: -0.179
ATTCAGCG: -0.0339
AGGGCGTG: -0.274
AGCGTTTC: -0.00692
GGACAGGA: -0.244
CGCGTCGA: -0.211
ACGAAATA: 0.226
ATGGGTTC: -0.142
GCGTGTCA: -0.0181
CAACCTTC: -0.0259
ATTAGACC: 0.005
GTCGCTCA: -0.163
GCCCCGGC: -0.335
AGTGCGTG: -0.215
GACAAAAC: 0.0585
GCTTTTCC: 0.0215

Sample 4
Target: TAR DNA-binding protein 43, full length, His tag (TARDBP, Homo sapiens, UniProt Q13148, residues 1-414)
Technique: RNA Bind-n-Seq
Form: RNA
Matrix: in vitro
Concentration: 20 nM
Notes: 6-mer, flanks averaged, single round
With: 150 mM KCl
Relative to: input library
Direction: higher = stronger binding
Quantity: 6-mer enrichment (R)
UGAAAU: 0.667
GGUCGC: 1.44
AACACG: 0.72
GCAACC: 0.715
GUUCCC: 0.64
AGCAGC: 0.885
GUGGUU: 1.28
CCAUUA: 0.586
AGUGGA: 1.57
GGGGCA: 4.47
CUGCGC: 0.838
AGAGAU: 0.805
CGCUGG: 1.37
ACACGG: 1.1
UAUAUA: 0.624
CUGGCU: 0.742
AGACAC: 0.739
UCUGAA: 0.63
AAGUGU: 0.974
UUAUGC: 0.645
CACGGU: 0.837
CGAUCU: 0.568
UAACGU: 0.618
ACGCGC: 0.859
GAGCGA: 1.49

Sample 5
Target: CCND3, cyclin fold, Cln2 fusion (human)
Technique: yeast growth competition, sequencing
Matrix: yeast
Notes: weak parent motif
Relative to: not given
Direction: higher = stronger binding
Quantity: normalised enrichment score
Parent: ASZ1 docking peptide (human); GFGFLLFICKLTF; partner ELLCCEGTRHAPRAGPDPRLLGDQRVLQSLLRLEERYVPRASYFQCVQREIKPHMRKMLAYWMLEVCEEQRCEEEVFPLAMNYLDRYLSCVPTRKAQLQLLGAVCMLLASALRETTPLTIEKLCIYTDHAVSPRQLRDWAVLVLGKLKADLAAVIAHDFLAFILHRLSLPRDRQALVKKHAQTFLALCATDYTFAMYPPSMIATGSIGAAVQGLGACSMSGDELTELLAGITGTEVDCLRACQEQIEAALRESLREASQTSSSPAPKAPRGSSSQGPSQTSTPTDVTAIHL
I8A: -0.0445
G1A: -0.11
G3A: 0.254
L5A: 0.366
C9A: 0.435
F4A: 0.0961
F7A: -0.238

Sample 6
Target: Prothrombin, mature alpha-thrombin (F2, Homo sapiens, UniProt P00734)
Technique: aptamer microarray, sandwich
Form: DNA with 2'F-ANA
Matrix: in vitro
Concentration: 200 nM
Notes: whole 15-mer aptamer, many near background
With: Cy3 exosite-II aptamer, 400 nM
Direction: higher = stronger binding
Quantity: mean fluorescence intensity
Oligonucleotide: GGTTGGTGTGGTTGG
2'F-ANA at 2 3 5 10 13 14: 47 a.u.
2'F-ANA at 1 2 7 8 9 13 15: 145 a.u.
2'F-ANA at 2 3 5 6 9 11 13 14: 50.1 a.u.
2'F-ANA at 1 2 5 8 9 11 12 13 14 15: 48.1 a.u.
2'F-ANA at 1 4 6 7 8 10: 49.3 a.u.
2'F-ANA at 5 8 10 14: 57 a.u.
2'F-ANA at 1 3 5 6 7 8 12 14: 49.7 a.u.
2'F-ANA at 1 4 5 6 7 8 9 11 15: 84.1 a.u.
2'F-ANA at 1 2 3 4 6 7 8 10 13 15: 83.9 a.u.
2'F-ANA at 1 4 5 8 9: 58.6 a.u.
2'F-ANA at 1 3 5 6 7 8 10 11 12 14: 56.4 a.u.
2'F-ANA at 1 2 4 6 14: 48.4 a.u.
2'F-ANA at 1 2 3 4 5 6 7 9 10 15: 54.3 a.u.
2'F-ANA at 1 2 3 4 6 13 14 15: 54.2 a.u.
2'F-ANA at 1 2 3 8 9 10 13: 64.6 a.u.
2'F-ANA at 2 3 4 6 7 9 10 11 12 13 14: 143 a.u.
2'F-ANA at 1 2 3 7 8 10 12 15: 94.2 a.u.
2'F-ANA at 3 6 7 9 10 11 13: 430 a.u.
2'F-ANA at 1 4 9 11 13 15: 74.3 a.u.
2'F-ANA at 2 3 4 5 7 9 13 15: 63.6 a.u.
2'F-ANA at 1 4 8 9 10 11: 52.6 a.u.
2'F-ANA at 5 7 8 10 12 13 14 15: 45.9 a.u.
2'F-ANA at 1 3 4 5 7 8 10 11 12 13: 52.2 a.u.
2'F-ANA at 1 2 7 9 12 13 14: 84.4 a.u.
2'F-ANA at 2 3 6 8 9 12 15: 1020 a.u.

Sample 7
Target: CREB5, bZIP domain (human)
Technique: DHFR protein complementation
Matrix: yeast
Notes: single substitutions, most at no-binding floor
Relative to: wild-type JUN-FOS pair
Direction: higher = stronger binding
Quantity: binding fitness
Parent: JUN, bZIP domain (human); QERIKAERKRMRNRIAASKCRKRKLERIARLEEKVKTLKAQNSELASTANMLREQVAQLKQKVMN; partner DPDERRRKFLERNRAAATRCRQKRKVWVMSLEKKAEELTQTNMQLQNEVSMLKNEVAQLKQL
K34D: -0.663 natural log
R30C: -0.306 natural log
E32K: -0.233 natural log
S43P: -1.33 natural log
Q41T: -0.546 natural log
K39R: -0.221 natural log
A46L: -0.252 natural log
L31Y: -0.824 natural log
R53N: -1.13 natural log
A46F: -0.475 natural log
L38K: -1.31 natural log
S47M: -0.324 natural log
R53W: -1.26 natural log
M51D: -0.122 natural log
E44R: -0.486 natural log
V56Y: -0.955 natural log
L45Q: -1.5 natural log
A40Y: -0.621 natural log
L31Q: -1.29 natural log

A few entries again (sample 3):
AGGTCTAT: 0.0881
CTATCGAA: 0.257
AGGGCGTG: -0.274
GAAAAAAC: 0.22
ATTCAGCG: -0.0339
ATGTTCCC: -0.0188
ATTAGACC: 0.005
GCGTGTCA: -0.0181
AATCTGGT: 0.0179
CAACCTTC: -0.0259
AACATTGG: 0.00306
ATGGGTTC: -0.142
ACGAAATA: 0.226
GGACAGGA: -0.244
AGTGCGTG: -0.215
GACAAAAC: 0.0585
GCCCCGGC: -0.335
